Published values pooled from the literature.
Protocols differ between the studies behind these lines. “And” joins repeats or separate records; there may be more than shown. ± marks the error that the study gave.
Genome polyprotein NS2B-NS3 protease: Genome polyprotein, NS2B-NS3 protease (ZIKV, UniProt A0A024B7W1)
UniProt A0A024B7W1, sequence (whole entry, looked up): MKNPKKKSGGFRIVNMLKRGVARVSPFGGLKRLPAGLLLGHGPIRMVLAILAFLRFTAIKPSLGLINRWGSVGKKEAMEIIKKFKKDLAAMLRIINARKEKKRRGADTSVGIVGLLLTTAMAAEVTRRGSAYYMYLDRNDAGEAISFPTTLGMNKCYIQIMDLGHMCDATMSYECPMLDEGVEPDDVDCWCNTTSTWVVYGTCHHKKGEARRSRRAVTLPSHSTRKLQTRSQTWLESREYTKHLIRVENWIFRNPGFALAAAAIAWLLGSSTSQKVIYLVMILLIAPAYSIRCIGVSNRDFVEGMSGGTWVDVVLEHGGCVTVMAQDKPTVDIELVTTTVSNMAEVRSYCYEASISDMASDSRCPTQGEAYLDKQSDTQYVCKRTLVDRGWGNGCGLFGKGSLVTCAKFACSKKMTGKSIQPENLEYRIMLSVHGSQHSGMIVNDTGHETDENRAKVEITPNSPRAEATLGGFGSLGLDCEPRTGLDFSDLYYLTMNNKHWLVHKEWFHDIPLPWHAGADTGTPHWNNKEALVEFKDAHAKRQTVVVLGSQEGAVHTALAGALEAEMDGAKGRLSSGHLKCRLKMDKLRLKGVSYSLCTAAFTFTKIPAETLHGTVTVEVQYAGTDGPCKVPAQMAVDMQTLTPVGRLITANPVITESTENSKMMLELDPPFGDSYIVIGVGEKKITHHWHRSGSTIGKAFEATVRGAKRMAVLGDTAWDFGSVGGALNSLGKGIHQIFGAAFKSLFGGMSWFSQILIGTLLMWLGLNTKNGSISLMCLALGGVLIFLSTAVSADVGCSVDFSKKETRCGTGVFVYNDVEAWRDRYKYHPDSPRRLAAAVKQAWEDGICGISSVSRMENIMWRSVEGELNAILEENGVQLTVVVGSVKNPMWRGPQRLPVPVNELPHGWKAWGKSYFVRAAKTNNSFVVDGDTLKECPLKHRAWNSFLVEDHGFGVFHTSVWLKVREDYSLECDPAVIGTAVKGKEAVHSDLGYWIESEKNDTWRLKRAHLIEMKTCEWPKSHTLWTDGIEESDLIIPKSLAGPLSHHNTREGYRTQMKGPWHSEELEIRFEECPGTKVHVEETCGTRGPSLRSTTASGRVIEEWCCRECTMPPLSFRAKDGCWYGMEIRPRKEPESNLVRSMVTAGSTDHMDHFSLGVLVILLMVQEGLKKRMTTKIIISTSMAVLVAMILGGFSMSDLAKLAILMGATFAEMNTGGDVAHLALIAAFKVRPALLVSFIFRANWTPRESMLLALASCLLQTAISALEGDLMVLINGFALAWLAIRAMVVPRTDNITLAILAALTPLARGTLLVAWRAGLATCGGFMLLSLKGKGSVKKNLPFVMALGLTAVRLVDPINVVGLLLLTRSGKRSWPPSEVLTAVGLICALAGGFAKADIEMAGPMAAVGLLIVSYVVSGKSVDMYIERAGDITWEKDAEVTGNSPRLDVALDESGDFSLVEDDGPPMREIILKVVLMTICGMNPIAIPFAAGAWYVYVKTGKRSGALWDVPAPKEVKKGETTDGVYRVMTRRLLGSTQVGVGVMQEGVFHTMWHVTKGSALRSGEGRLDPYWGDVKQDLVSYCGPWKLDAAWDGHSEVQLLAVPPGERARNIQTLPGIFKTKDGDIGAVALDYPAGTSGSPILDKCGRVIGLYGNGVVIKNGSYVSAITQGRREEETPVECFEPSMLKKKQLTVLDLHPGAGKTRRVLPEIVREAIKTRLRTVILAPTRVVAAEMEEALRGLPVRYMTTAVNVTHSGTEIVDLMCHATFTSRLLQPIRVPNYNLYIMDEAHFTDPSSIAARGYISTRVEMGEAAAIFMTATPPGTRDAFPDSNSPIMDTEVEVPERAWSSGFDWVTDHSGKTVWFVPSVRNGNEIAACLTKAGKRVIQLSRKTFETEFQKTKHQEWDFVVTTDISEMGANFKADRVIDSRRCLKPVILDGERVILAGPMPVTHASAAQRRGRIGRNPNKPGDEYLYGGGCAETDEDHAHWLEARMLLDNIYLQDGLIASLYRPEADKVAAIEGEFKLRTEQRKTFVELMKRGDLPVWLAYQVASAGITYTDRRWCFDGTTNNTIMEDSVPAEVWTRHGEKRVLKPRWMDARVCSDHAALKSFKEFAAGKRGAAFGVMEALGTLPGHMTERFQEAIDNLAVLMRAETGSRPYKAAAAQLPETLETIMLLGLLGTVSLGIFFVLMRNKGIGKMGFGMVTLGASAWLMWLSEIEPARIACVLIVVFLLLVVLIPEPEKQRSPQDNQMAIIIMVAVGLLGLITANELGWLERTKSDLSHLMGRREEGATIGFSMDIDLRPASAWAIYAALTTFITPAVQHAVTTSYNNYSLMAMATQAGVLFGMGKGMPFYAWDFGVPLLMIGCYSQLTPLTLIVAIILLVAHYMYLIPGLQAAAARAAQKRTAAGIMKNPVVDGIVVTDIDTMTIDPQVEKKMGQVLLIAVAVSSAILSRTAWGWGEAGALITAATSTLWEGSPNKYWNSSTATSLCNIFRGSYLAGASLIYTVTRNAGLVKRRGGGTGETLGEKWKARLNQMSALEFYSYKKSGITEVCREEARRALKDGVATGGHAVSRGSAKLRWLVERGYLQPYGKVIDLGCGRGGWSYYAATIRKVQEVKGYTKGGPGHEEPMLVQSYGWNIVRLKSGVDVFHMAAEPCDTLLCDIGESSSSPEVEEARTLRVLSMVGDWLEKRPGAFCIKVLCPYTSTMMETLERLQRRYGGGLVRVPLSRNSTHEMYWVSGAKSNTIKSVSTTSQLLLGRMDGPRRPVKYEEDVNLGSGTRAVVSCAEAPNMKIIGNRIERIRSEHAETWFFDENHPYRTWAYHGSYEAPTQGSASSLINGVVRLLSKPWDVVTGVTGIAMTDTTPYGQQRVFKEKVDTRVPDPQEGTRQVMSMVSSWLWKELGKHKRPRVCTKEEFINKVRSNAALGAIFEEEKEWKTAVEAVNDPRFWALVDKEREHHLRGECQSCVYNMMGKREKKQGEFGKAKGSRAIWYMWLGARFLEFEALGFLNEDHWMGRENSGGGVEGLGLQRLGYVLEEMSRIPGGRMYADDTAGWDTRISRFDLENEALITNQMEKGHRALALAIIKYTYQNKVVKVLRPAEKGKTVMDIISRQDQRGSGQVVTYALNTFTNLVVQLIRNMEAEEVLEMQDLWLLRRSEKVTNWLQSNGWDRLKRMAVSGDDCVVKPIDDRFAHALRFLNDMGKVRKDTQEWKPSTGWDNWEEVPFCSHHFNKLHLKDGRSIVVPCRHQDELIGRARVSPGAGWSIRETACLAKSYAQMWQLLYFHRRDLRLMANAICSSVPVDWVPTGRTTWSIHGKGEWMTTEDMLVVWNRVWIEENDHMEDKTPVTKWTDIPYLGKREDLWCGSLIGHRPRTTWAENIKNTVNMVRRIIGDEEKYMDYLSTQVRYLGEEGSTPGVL
Proteasome component C5/PSMB5 chymotrypsin-like site: Proteasome component C5/PSMB5, chymotrypsin-like site (Homo sapiens, UniProt P20618+P28074)
UniProt P20618, sequence (whole entry, looked up): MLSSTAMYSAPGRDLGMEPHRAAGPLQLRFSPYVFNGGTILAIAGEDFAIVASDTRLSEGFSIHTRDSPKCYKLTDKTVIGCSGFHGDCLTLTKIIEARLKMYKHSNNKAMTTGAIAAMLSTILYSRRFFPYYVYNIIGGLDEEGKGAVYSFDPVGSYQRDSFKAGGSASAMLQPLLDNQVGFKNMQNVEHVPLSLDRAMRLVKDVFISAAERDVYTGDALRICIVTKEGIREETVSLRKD
UniProt P28074, sequence (whole entry, looked up): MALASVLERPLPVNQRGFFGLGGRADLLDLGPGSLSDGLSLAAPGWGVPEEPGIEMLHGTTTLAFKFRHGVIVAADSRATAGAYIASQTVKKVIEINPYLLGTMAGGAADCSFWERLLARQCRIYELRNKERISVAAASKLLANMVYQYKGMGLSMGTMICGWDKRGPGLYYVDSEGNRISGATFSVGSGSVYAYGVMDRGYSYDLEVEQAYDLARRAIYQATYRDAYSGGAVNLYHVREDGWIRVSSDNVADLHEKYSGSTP
ALPL: Alkaline phosphatase, tissue-nonspecific isozyme (ALPL, Homo sapiens, UniProt P05186)
UniProt P05186, sequence (whole entry, looked up): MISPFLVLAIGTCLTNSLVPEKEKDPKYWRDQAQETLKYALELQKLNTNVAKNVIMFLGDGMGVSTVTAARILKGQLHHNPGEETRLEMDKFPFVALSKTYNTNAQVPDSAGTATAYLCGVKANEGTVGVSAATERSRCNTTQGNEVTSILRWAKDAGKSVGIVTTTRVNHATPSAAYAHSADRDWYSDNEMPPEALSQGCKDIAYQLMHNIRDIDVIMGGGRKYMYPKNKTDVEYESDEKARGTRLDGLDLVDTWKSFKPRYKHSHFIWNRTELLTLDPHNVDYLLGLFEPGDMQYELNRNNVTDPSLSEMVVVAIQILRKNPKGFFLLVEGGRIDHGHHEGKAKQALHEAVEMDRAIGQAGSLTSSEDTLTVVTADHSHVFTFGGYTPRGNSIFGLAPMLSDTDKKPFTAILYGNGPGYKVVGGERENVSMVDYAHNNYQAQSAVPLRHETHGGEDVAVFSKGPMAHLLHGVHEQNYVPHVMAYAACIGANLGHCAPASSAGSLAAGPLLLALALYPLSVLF
UniProt B2RXH2, sequence (whole entry, looked up): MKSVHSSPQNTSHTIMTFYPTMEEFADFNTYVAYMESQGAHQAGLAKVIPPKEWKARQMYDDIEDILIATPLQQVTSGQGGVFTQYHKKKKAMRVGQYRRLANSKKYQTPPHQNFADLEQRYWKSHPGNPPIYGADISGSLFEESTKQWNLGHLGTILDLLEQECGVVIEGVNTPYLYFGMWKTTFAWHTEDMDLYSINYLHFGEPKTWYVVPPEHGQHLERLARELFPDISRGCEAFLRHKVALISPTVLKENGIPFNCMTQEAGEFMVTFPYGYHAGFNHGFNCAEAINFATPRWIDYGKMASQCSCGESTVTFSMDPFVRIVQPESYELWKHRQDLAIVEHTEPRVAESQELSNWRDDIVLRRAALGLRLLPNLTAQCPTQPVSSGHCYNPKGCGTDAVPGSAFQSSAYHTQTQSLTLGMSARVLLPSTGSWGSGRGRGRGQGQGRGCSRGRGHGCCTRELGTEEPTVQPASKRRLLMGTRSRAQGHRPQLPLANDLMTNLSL

`O=C(O)c1ccccc1-c1c2ccc(=O)c([As]3SCCS3)c-2oc2c([As]3SCCS3)c(O)ccc12` gave an IC50 of 2.8 µM (Tyrosine-protein phosphatase non-receptor type 1 (PTPN1, Homo sapiens, UniProt P18031, P87C); enzyme activity, inhibitor; crude Escherichia coli lysate; 120 min, 37 °C, together with: pNPP).
`NCCCOc1ccc(Cl)cc1C(=O)Nc1ccc([N+](=O)[O-])cc1Cl` has an IC50 of 4.9 µM (Genome polyprotein, NS2B-NS3 interaction (dengue virus type 2, UniProt P29990); NS2B-NS3 interaction, inhibitor, split luciferase complementation; dengue virus 2).
`NCc1ccc(-c2ncc(NCC3CCNCC3)nc2-c2ccc(-c3ccoc3)cc2)cc1F` gave an IC50 of 5.3 µM (Genome polyprotein NS2B-NS3 protease; inhibitor; Zika virus).
`COC[C@H](NC(=O)OCc1ccccc1)C(=O)N[C@@H](Cc1ccccc1)C(=O)N[C@@H](CC(C)C)C(=O)C(=O)Nc1ccccc1` gave an IC50 of 0.243 µM (Proteasome component C5/PSMB5 chymotrypsin-like site; enzyme activity in cells, inhibitor).
For `Ic1ccc(-c2ncc(OCCCC3CCNCC3)nc2-c2ccc(I)cc2)cc1`, the IC50 was greater than 10 µM (Genome polyprotein NS2B-NS3 protease; inhibitor; Zika virus).
For `COP(=S)(OC)Oc1ccc([N+](=O)[O-])cc1`, the IC50 was 0.0084 µM (muscarinic receptors, rat; radioligand displacement; aging cortex membranes; 90 min, 21 °C, together with: 1 nM [3H]oxotremorine-M).
With `O=P(O)(O)Oc1cc(OP(=O)(O)O)cc(-c2c(OP(=O)(O)O)cc(OP(=O)(O)O)cc2OP(=O)(O)O)c1` the IC50 was 1 ± 2 µM (Inositol polyphosphate-5-phosphatase A (Homo sapiens, UniProt Q14642); enzyme activity, inhibitor; together with: 1 µM [3H]Ins(1,4,5)P3 substrate).
With `CC(C)C[C@H](NC(=O)[C@H](C)N)C(=O)N[C@@H](C)C(=O)N[C@@H](C)C(=O)N[C@@H](Cc1c[nH]c2ccccc12)C(=O)N[C@@H](C)C(=O)N[C@@H](C)C(=O)O` the IC50 was greater than 50 µM (Transcriptional regulator ComR (Streptococcus mutans serotype c, UniProt Q8DWI6); Streptococcus mutans).
`NCc1ccc(-c2ncc(OCCN3CCNCC3)nc2-c2ccc(CN)cc2)cc1` gave an IC50 of greater than 10 µM (Genome polyprotein NS2B-NS3 protease; inhibitor; Zika virus).
The IC50 of `Cc1cc(O)cc(C)c1-c1ccc(-c2c(C)cc(O)cc2C)[se]1` is reported as 5.39 µM (Estrogen receptor beta (ESR2, Homo sapiens, UniProt Q92731); antagonist; HEK293T; together with: estradiol 10 nM).
For `(−)-epigallocatechin gallate`, the IC50 was 20 µM (nuoF (Escherichia coli, UniProt P31979); deamino-NADH oxidase activity, inhibitor; 1100, membrane vesicles; together with: deamino-NADH 75 µM).
The IC50 of `CN1CCN(C2=Nc3ccccc3Oc3ccc(Cl)cc32)CC1` is reported as greater than 100 µM (Beta-glucuronidase (uidA, Escherichia coli, UniProt P05804); enzyme activity, inhibitor).
`O=C([O-])c1ccccc1-c1c2cc(Br)c(=O)cc-2oc2[c]([Hg+])c([O-])c(Br)cc12.[Na+].[Na+].[OH-]` gave an IC50 of 23.6 ± 0.6 µM (Dual specificity protein phosphatase 5 (Homo sapiens, UniProt Q16690); phosphatase activity; 30 min, 1 mM DTT, together with: pNPP).
With `O=C([O-])c1ccccc1-c1c2cc(Br)c(=O)cc-2oc2[c]([Hg+])c([O-])c(Br)cc12.[Na+].[Na+].[OH-]` the IC50 was 28 µM (Histone-lysine N-methyltransferase SETD7 (SETD7, Homo sapiens, UniProt Q8WTS6); enzyme activity, inhibitor).
`CC(C)C[C@H](NC(=O)CN)C(=O)N[C@@H](CCC(=O)O)C(=O)N1CCC[C@H]1C(=O)N[C@@H](CC(C)C)C(=O)N[C@@H](CC(=O)O)C(=O)N[C@@H](CC(C)C)C(=O)N[C@@H](CC(N)=O)C(=O)N[C@H](C(=O)N[C@@H](CO)C(=O)N[C@@H](C)C(=O)NCC(=O)N[C@@H](Cc1ccccc1)C(=O)N1CCC[C@H]1C(=O)N[C@@H](Cc1ccc(O)cc1)C(=O)N[C@H](C(=O)O)C(C)C)[C@@H](C)O` has an IC50 of less than 0.1 µM (HLA class I histocompatibility antigen, A alpha chain, allele A*02:01 (Homo sapiens, UniProt P04439); binding, competitive radioligand binding; 48 h, 37 °C, together with: radiolabelled FLPSDYFPSV 1 nM).
`O=C1C2CC=CCC2C(=O)N1c1n[nH]c(Cc2ccccc2)n1` (stereo not shown) has an IC50 of 0.236 µM (ALPL; enzyme activity, inhibitor, luminescence; together with: CDP-star substrate, 100 mM DEA).
`Cn1c(NN=Cc2cc3ccccc3nc2Cl)nc2ccccc21` gave an IC50 of 0.07 ± 0.01 µM (Luciferin 4-monooxygenase (Photinus pyralis, UniProt P08659); enzyme activity, inhibitor; purified enzyme; together with: ATP and D-luciferin at Km (10 µM)).
`CCCCCc1cc(OC(=O)c2ccc(O)cc2O)cc(O)c1C(=O)O` gave an IC50 of 250 to 500 µM (DNA topoisomerase 1 (topA, Escherichia coli, UniProt P06612); enzyme activity, inhibitor; range shared with DNA gyrase).
With `O=C(NC1CCc2ccccc2C1)c1ccc(-c2ccccc2)cc1` (stereo not shown) the IC50 was 0.052 µM (Transient receptor potential cation channel subfamily M member 8 (TRPM8, Homo sapiens, UniProt Q7Z2W7); calcium signal, antagonist, fluorescence).
For `O=C(Oc1ccccc1)c1cc(O)c(O)c(O)c1`, the IC50 was greater than 100 µM (DNA topoisomerase 4 subunit B, with ParC subunit (parE, Escherichia coli K-12, UniProt P20083); DNA relaxation, inhibitor, gel-based; Escherichia coli).
The IC50 of `C[C@@H]1C[C@H]2[C@@H]3CCC4=CC(=O)C=C[C@]4(C)[C@@]3(Cl)[C@@H](O)C[C@]2(C)[C@@]1(OC(=O)c1ccco1)C(=O)CCl` is reported as 1 ± 0.5 µM (Multidrug resistance-associated protein 1 (ABCC1, Homo sapiens, UniProt P33527); substrate efflux, inhibitor, flow cytometry; ABCC1-overexpressing SupT1-Vin cells; together with: BODIPY-FL-prazosin 100 nM).
`N#CC[C@H](C1CCCC1)n1cc(-c2ncnc3[nH]ccc23)cn1` gave an IC50 of 19.1 ± 2.9 µM (Solute carrier organic anion transporter family member 1B3 (SLCO1B3, Homo sapiens, UniProt Q9NPD5); transport, inhibitor; 10 (unit not given), pre-incubation, together with: cholecystokinin).
`NC(Cc1cc(O)c(O)cc1O)C(=O)O` (racemic) gave an IC50 of 5 µM (Lysine-specific demethylase 4E (KDM4E, Homo sapiens, UniProt B2RXH2); enzyme activity, inhibitor, fluorescence).
With `CS(=O)(=O)Nc1ccc(OC[C@@H](O)CNCCc2ccc(Cl)c(Cl)c2)cc1` the IC50 was 0.053 µM (Glutamate NMDA receptor; GRIN1/GRIN2B (GRIN1/GRIN2B, Homo sapiens, UniProt Q05586+Q13224); inhibitor, cell-based).
The IC50 of `O=C1O[C@H]2[C@@H]3OC(=O)c4cc(O)c(O)c(O)c4-c4c(O)c(O)c5oc(=O)c6c(c(O)c(O)c7oc(=O)c4c5c76)-c4c(cc(O)c(O)c4O)C(=O)OC[C@H]3OC(O)[C@@H]2OC(=O)c2cc(O)c(O)c(O)c2-c2c1cc(O)c(O)c2O` (mixture of isomers) is reported as 8.1 µM (DNA oxidative demethylase ALKBH2 (ALKBH2, Homo sapiens, UniProt Q6NS38); 3-methylcytosine repair, inhibitor, HPLC; 1 h, 37 °C, together with: ssDNA 16mer 5 µM).
`COc1ccc(C)cc1S(=O)(=O)Nc1cccnc1` gave an IC50 of 1.78 µM (ALPL; enzyme activity, inhibitor, luminescence; together with: CDP-Star 50 µM).
`CN1C(=O)[C@]23SS[C@@]1(C)C(=O)N2[C@H]1Nc2ccccc2[C@@]1([C@@]12c4ccccc4N[C@@H]1N1C(=O)[C@@]4(C)SS[C@]1(C(=O)N4C)[C@H]2O)[C@@H]3O` gave an IC50 of 0.538 µM (Histone-lysine N-methyltransferase EHMT2 (EHMT2, Homo sapiens, UniProt Q96KQ7); enzyme activity, inhibitor, radiometric).
The IC50 of `O=S(=O)(O)Oc1ccc(-c2ccc(Cl)cc2)c(Cl)c1` is reported as 45.8 µM (Sulfotransferase 2A1 (SULT2A1, Homo sapiens, UniProt Q06520); enzyme activity, inhibitor, radiometric; pH 7.4).
With `COc1cc(/C=C(\C#N)C(=O)Nc2nnc(C(F)(F)F)s2)ccc1OCc1ccc(C(F)(F)F)cc1C(F)(F)F` the IC50 was 3.09 µM (PGC-1α/ERRα (human); reporter gene, antagonist, luciferase reporter; 18 h, 3000 cells/well).
For `Fc1ccc(C(OCCN2CCN(CCCc3ccccc3)CC2)c2ccc(F)cc2)cc1`, the IC50 was 15.1 µM (Potassium channel subfamily K member 18 (KCNK18, Homo sapiens, UniProt Q7Z418); ion flux, inhibitor).
`CC(C)c1ccc(-c2nc3cc4nc5ccccc5nc4cc3[nH]2)cc1` has an IC50 of 92.1 µM (Genome polyprotein, protease (dengue virus type 2, UniProt P29990); enzyme activity, inhibitor, fluorescence; pH 8.5).
`CCCCC/C=C\C/C=C\C/C=C\C/C=C\CCCCN1C(=O)C=CC1=O` gave an IC50 of 2.8 µM (Monoglyceride lipase (MGLL, Homo sapiens, UniProt Q99685); enzyme activity, inhibitor; together with: AHMMCE).
`O=c1c(O)c(-c2cc(O)c(O)c(O)c2)oc2cc(O)cc(O)c12` has an IC50 of 12 ± 2.55 µM (Cell division cycle 7-related protein kinase, with DBF4 (CDC7, Homo sapiens, UniProt O00311); enzyme activity, inhibitor, ADP-Glo luminescence; together with: ATP 12.5 µM).
`C/C(N)=N\C(=N/S(=O)(=O)c1ccc(C(F)(F)F)cc1)N1C[C@H](c2ccccc2)C(c2ccc(Cl)cc2)=N1` has an IC50 of 0.04 µM (Cannabinoid receptor 1 (Cnr1, Mus musculus, UniProt P47746); GTPγS binding, antagonist, radiometric; cell membranes).
The IC50 of `COc1cc([C@@H]2c3cc4c(cc3[C@H](O)[C@H]3COC(=O)[C@H]23)OCO4)cc(OC)c1OC` is reported as 0.3 µM and 0.32 µM (tubulin alpha/beta (Leishmania infantum, UniProt A0A381MCS3+A4HTR0); tubulin polymerization, inhibitor; 37 °C).
`CN[C@@H]1C[C@H]2O[C@@](C)([C@@H]1OC)n1c3ccccc3c3c4c(c5c6ccccc6n2c5c31)C(=O)NC4` has an IC50 of 8 ± 1.5 µM (Proteasome Macropain subunit MB1 (PSMB5, Homo sapiens, UniProt P28074); enzyme activity; together with: Suc-LLVY-AMC substrate, ATP).
For `CCCCCCCC/C=C\CCCCCCCC(=O)NCCO`, the IC50 was greater than 100 µM (Amine oxidase [flavin-containing] A (MAOA, Homo sapiens, UniProt P21397); enzyme activity, inhibitor, fluorescence).
The IC50 of `Oc1ccc(-c2ccc(Cl)cc2)c(Cl)c1` is reported as 0.018 µM (Sulfotransferase 1E1 (SULT1E1, Homo sapiens, UniProt P49888); enzyme activity, inhibitor, radiometric; pH 7.4).
`CC[C@H](C)[C@H](NC(=O)[C@H](Cc1ccc(O)cc1)NC(=O)[C@H](CC(=O)O)NC(=O)[C@@H](NC(=O)[C@H](CC(C)C)NC(=O)[C@@H](N)Cc1ccccc1)[C@@H](C)O)C(=O)N1CCC[C@H]1C(=O)NCC(=O)N[C@@H](C)C(=O)O` gave an IC50 of 0.0078 µM (HLA class I histocompatibility antigen, A alpha chain, allele A*02:03 (Homo sapiens, UniProt P04439); peptide binding, radiolabelled peptide competition; together with: radiolabelled standard peptide).
`COc1cc(NC(=O)C(=O)[C@H](CC(C)C)NC(=O)[C@H](CC(C)C)NC(=O)[C@H](CC(C)C)NC(=O)c2ccc(-c3ccc(C(C)=O)cc3)o2)cc(OC)c1` has an IC50 of 0.0317 µM (Proteasome component C5/PSMB5 chymotrypsin-like site; enzyme activity in cells, inhibitor).
With `CCCCN1C=C(c2ccc3ccccc3n2)C(C)c2ccccc21` (stereo not shown) the IC50 was greater than 100 µM (virF (Shigella flexneri, UniProt P0A2T1); reporter gene expression, inhibitor; Escherichia coli, virB-lacZ reporter strain; 3 h, 37 °C, 6.2% DMSO, together with: 1 mM IPTG).
With `CC(=O)c1cccc(NC(=O)C(=O)[C@H](CC(C)C)NC(=O)[C@H](CC(C)C)NC(=O)[C@H](CC(C)C)NC(=O)OCc2ccccc2)c1` the IC50 was 0.0221 µM (Proteasome component C5/PSMB5 chymotrypsin-like site; enzyme activity in cells, inhibitor).
`CNCCC(Oc1ccccc1OC)c1ccccc1` (stereo not shown) gave an IC50 of 0.114 ± 0.01 µM (Dopamine transporter (Schistosoma mansoni, UniProt E9LD23)).
For `CCCC(=O)N[C@@H](C)C(=O)N[C@@H](C(=O)N[C@@H]1C(=O)N[C@@H](CC(C)C)C(=O)N[C@H]2CC[C@@H](O)N(C2=O)[C@@H](Cc2ccccc2)C(=O)N(C)[C@@H](Cc2ccc(O)cc2)C(=O)N[C@@H](C(C)C)C(=O)O[C@H]1C)[C@@H](C)OC(=O)[C@H](C)NC(=O)CCC`, the IC50 was 0.28 µM (Chymotrypsin-like elastase family member 1 (CELA1, Sus scrofa, UniProt P00772); enzyme activity, inhibitor; with preincubation).
`FC(F)(F)C(Cl)Br` (stereo not shown) has an IC50 of 70 µM (Proton-gated ion channel (glvI, Gloeobacter violaceus, UniProt Q7NDN8); pH 5.5).
With `[Cl-].[Na+]` the IC50 was 97000 µM (Beta-lactamase OXA-48 (OXA-48, Klebsiella pneumoniae, UniProt Q6XEC0, del214-217/S212D); enzyme activity, inhibitor; pH 7.2, with preincubation).
